Assay results gathered from unrelated publications.
Each line is one published result; not all experiments were run side by side.
Ba71V-97 DNA complex: Ba71V-97, DNA complex (African swine fever virus, UniProt P42494)
Polyprotein P1234 nsP2: Polyprotein P1234, nsP2 (Chikungunya virus, UniProt Q8JUX6)

Compound	target	test	system	conditions	inhibition
CC(C)C[C@H](NC(=O)[C@@H](NC(=O)[C@@H](CCCNC(=N)N)NC(=O)[C@@H](CCCNC(=N)N)NC(=O)[C@@H](CCCNC(=N)N)NC(=O)[C@@H](CCCNC(=N)N)NC(=O)[C@@H](CCCNC(=N)N)NC(=O)[C@@H](CCCNC(=N)N)NC(=O)[C@@H](CCCNC(=N)N)NC(=O)[C@@H](CCCNC(=N)N)NC(=O)[C@H](N)CCCNC(=N)N)C(C)C)C(=O)N[C@@H](CCCNC(=N)N)C(=O)NO	Lethal factor (Bacillus anthracis, UniProt P15917)	enzyme activity, inhibitor	–	0.02 µM	93%
CSCC[C@H](NC(=O)[C@H](CCN)NC(=O)[C@@H](NC(=O)[C@H](Cc1c[nH]c2ccccc12)NC(=O)[C@H](CCCNC(=N)N)NC(=O)[C@@H](N)CCNc1ccc([N+](=O)[O-])cc1[N+](=O)[O-])[C@@H](C)O)C(=O)N[C@@H](CC(C)C)C(N)=O	Botulinum neurotoxin type A (Clostridium botulinum, UniProt P0DPI0)	enzyme activity, inhibitor	–	concentration not given	> 90%
CS(C)(=O)=Nc1ccc(-c2ccc(-c3nc4cc(O[C@@H]5CO[C@H]6[C@@H]5OC[C@H]6O)[nH]c4cc3F)cc2)cc1	strychnine-sensitive glycine receptor	binding	–	10 µM	-11%
O=C(O)c1ccc(Nc2cc(Nc3ccc(C(=O)O)cc3)c3c(=O)c(Nc4ccc(C(=O)O)cc4)c(-c4ccc(Nc5ccc(C(=O)O)cc5)c(Nc5ccc(C(=O)O)cc5)c4)oc3c2)cc1	Spike glycoprotein, receptor-binding domain (MERS-CoV, UniProt K9N5Q8)	spike protein activity	–	concentration not given	inhibited
CC1=CC(=C(c2cc(C)c(O)c(C(=O)O)c2)c2c(Cl)ccc(S(=O)(=O)O)c2Cl)C=C(C(=O)O)C1=O	Ba71V-97 DNA complex	enzyme activity	–	100 µM	> 50%
COC1C(O)C(COP(=O)(O)OP(=O)(O)OP(=O)(O)O)OC1n1cnc2c(=O)[nH]c(N)nc21 (centres unmarked)	mRNA-decapping protein OPG122 (OPG122, Vaccinia virus, UniProt P04312)	–	–	100 µM	75%
CS(=O)(=O)NCC1CCOC2(CCN(C(=O)C3(c4ccccc4)CCC3)CC2)C1 (centres unmarked)	Polyprotein P1234 nsP2	ATPase activity, ADP-Glo	–	200 µM	< 10%
CC(C)C[C@H](NC(=O)[C@H](CC(=O)O)NC(=O)[C@H](CCC(=O)O)NC(=O)[C@H](C)NC(=O)[C@H](CCC(=O)O)NC(=O)[C@H](Cc1c[nH]cn1)NC(=O)[C@H](CC(N)=O)NC(=O)[C@H](Cc1ccccc1)NC(=O)[C@H](Cc1ccccc1)NC(=O)[C@H](CC(=O)O)NC(=O)[C@H](CC(C)C)NC(=O)[C@H](Cc1ccccc1)NC(=O)[C@@H](N)[C@@H](C)O)C(=O)N[C@@H](Cc1ccccc1)C(=O)N[C@@H](Cc1ccc(O)cc1)C(=O)N[C@@H](CSCc1ccc(S(=O)(=O)F)cc1)C(=O)O	Spike glycoprotein, Omicron BA.2 RBD; ACE2 (Severe acute respiratory syndrome coronavirus 2, UniProt P0DTC2)	RBD binding to human ACE2	–	400 nM, SARS-CoV-2 Omicron BA.2 RBD	~100%
CS(=O)(=O)NCC1CCOC2(CCN(C(=O)C3(c4ccccc4)CCCC3)CC2)C1 (centres unmarked)	Polyprotein P1234 nsP2	ATPase activity, ADP-Glo	–	200 µM	85%
Cc1ccc(N2CC3CC(C2)N3C)cc1C(=O)NC1(c2ccc3c4c(cccc24)C(=O)N3C)CC1	Replicase polyprotein 1a, papain-like protease (Severe acute respiratory syndrome coronavirus 2, UniProt P0DTC1)	enzyme activity	–	20 µM	100%
C[C@H](NCc1ccc(-c2ccc(C(F)(F)F)cc2)cc1)C(N)=O	strychnine-sensitive glycine receptor, rat	binding, radioligand binding	biochemical	1 µM, together with: [3H]strychnine 10 nM	2%
C[C@H](NC(=O)[C@@H](c1cccnc1)N(C(=O)c1ccco1)c1ccc(-c2ccccc2)cc1)c1ccccc1	Cathepsin B (CTSB, Homo sapiens, UniProt P07858)	enzyme activity, inhibitor	–	20 µM	55%
O=C(O)c1ccccc1N=NC(=NNc1cc(S(=O)(=O)O)ccc1O)c1ccccc1	Ba71V-97 DNA complex	enzyme activity	–	100 µM	> 50%
CC[C@H](C)[C@H](NC(=O)[C@H](Cc1c[nH]cn1)NC(=O)[C@H](Cc1ccc(O)cc1)NC(=O)[C@H](CCCCN)NC(=O)[C@@H]1CSSC[C@@H]2NC(=O)[C@H](CCC(=O)O)NC(=O)[C@H](CC(=O)O)NC(=O)[C@H](C)NC(=O)CNC(=O)[C@H](Cc3ccc(O)cc3)NC(=O)[C@H](CCCCN)NC(=O)[C@@H]3CSSC[C@H](NC(=O)[C@H](C(C)C)NC(=O)[C@H](Cc4ccc(O)cc4)NC(=O)CNC(=O)[C@H](CCCCN)NC(=O)[C@H](CSSC[C@H](NC(=O)[C@@H](N)CO)C(=O)N[C@@H](CCCCN)C(=O)N[C@@H](C(C)C)C(=O)N[C@@H](Cc4c[nH]c5ccccc45)C(=O)N[C@@H](Cc4ccccc4)C(=O)N[C@@H](CC(N)=O)C(=O)N[C@@H](CCC(=O)O)C(=O)N3)NC2=O)C(=O)N[C@@H](CO)C(=O)N[C@@H](CCCCN)C(=O)N[C@@H](CCCNC(=N)N)C(=O)N[C@@H](CC(=O)O)C(=O)NCC(=O)N[C@@H](Cc2c[nH]c3ccccc23)C(=O)N1)C(=O)N[C@@H](CC(N)=O)C(=O)O	SCN9A (Homo sapiens, UniProt Q15858)	ion current, inhibitor, patch clamp	HEK293	3.3 µM	64.8%
O=c1cc(-c2ccc(O)cc2)oc2c([C@@H]3OC[C@H](O)[C@H](O)[C@H]3O)c(O)c([C@@H]3O[C@H](CO)[C@@H](O)[C@H](O)[C@H]3O)c(O)c12	Replicase polyprotein 1ab, main protease (rep, Severe acute respiratory syndrome-related coronavirus, UniProt P0C6X7)	enzyme activity, inhibitor	–	8 µM	68.4%
O=C1c2sc(-c3ccc(N4CCC(F)C4)nc3F)nc2CCN1c1cccnc1 (centres unmarked)	Grin1 (Rattus norvegicus, UniProt P35439)	ligand displacement, radioligand	–	1 µM	-11%
Cn1ccc2cc(-n3c(=O)[nH]c4sc5c(c4c3=O)CCCC5)ccc21	CHRNA1/CHRNG/CHRND (Homo sapiens, UniProt P02708+P07510+Q07001)	–	–	10 µM	6%

A few entries again:
Compound	target	test	system	conditions	inhibition
CSCC[C@H](NC(=O)[C@H](CCN)NC(=O)[C@@H](NC(=O)[C@H](Cc1c[nH]c2ccccc12)NC(=O)[C@H](CCCNC(=N)N)NC(=O)[C@@H](N)CCNc1ccc([N+](=O)[O-])cc1[N+](=O)[O-])[C@@H](C)O)C(=O)N[C@@H](CC(C)C)C(N)=O	Botulinum neurotoxin type A (Clostridium botulinum, UniProt P0DPI0)	enzyme activity, inhibitor	–	concentration not given	> 90%
